# Measured values gathered from unrelated publications.
# Every numbered part comes from another study and shows a few of its results, in no order. Positions count from the first letter of the parent shown.

# Study 1
# Target: Sal-like protein 4, full length isoform B (SALL4, Homo sapiens, UniProt Q9UJQ4-2, residues 1-616)
# Technique: universal PBM
# Form: double-stranded DNA, one strand shown
# Sample: in vitro
# Concentration: not given
# Setting: 8-mer, flanks averaged, mean of replicates
# Direction: higher = stronger binding
# Residues (chain): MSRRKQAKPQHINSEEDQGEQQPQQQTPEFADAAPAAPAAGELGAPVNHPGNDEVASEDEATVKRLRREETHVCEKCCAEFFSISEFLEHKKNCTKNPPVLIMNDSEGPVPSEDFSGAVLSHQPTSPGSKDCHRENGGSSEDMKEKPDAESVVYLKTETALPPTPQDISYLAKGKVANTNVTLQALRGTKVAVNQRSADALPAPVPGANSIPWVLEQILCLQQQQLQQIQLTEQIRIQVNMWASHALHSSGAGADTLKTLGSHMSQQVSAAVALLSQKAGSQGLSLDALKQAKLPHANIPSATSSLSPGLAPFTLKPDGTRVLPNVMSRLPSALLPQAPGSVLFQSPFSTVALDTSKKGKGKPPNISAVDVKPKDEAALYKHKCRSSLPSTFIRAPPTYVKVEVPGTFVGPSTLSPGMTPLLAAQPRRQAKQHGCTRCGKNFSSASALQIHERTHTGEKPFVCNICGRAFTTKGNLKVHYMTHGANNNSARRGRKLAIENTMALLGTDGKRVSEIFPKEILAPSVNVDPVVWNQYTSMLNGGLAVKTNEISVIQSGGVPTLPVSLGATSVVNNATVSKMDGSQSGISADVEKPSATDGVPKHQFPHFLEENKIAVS
Oligonucleotide,E-score
AAGACCCG,-0.239
GGGACTAA,-0.00298
GATCCTCC,-0.204
CGTAGCAG,-0.134
CTTCTCCA,-0.179
GTTAGACA,0.102
AAGCTAAA,0.0751
CTCTCCCA,-0.0862
AACGTGGT,-0.0911
TACGAGGA,-0.0564
CCGTTTAG,-0.0713
AACTATAA,0.342
GCTTAGGA,-0.266
GGGCACAC,-0.291
AGAGTTAA,0.0884
CACAACCA,-0.0307
ACAGAATG,0.0459
CACAACGC,-0.0605
GCACTTAA,0.202
ACAAGGCT,-0.0172
TACCTAAA,0.137
ACTTCAGG,0.00425
CAGTTAGG,-0.0671

# Study 2
# Target: Ras GTPase-activating protein-binding protein 1, C-terminal RGG region (G3BP1, Homo sapiens, UniProt Q13283)
# UniProt Q13283, sequence (whole entry, looked up): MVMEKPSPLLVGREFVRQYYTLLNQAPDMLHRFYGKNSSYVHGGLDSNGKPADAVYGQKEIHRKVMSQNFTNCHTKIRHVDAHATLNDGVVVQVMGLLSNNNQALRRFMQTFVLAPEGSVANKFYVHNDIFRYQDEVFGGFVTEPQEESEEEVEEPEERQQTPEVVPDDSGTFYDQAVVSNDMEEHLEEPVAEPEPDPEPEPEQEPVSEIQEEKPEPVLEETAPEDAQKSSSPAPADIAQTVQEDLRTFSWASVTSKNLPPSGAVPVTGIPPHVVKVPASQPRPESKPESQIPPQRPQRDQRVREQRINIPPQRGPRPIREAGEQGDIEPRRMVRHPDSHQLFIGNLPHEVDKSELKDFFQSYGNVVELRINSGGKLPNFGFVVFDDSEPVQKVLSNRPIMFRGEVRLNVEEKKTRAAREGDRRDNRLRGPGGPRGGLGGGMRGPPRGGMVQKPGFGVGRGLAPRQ
# Technique: RNA Bind-n-Seq
# Form: RNA
# Sample: in vitro
# Concentration: 1 µM
# Setting: whole 134-nt RNA, ends assumed
# Together with: 150 mM KCl
# Relative to: input library
# Direction: higher = stronger binding
# Constant ends, left off below: GGGAGUUCUACAGUCCGACGAUC … UGGAAUUCUCGGGUGUCAAGG
Oligonucleotide,log2 enrichment
AGUCCUGUGCUACACAUCGUAUGUACCGAAUCGGCCCCGGGGCCCCGGGGCCCCGGGGAAAGUAUUAUGUUACGCCGUUCGGAUCUGCAC,-2.03
UGGCCCUGGUGGCAUGCGGGGAGGAAGAGGUGGCCUCAUGGAUCGUGGAGGUCCCGGUGGAAUGUUCAGAGGUGGCCGUGGUGGAGACAG,0.157
AAGUCCUGUGCUACACAUCGUAUGUACCGAAUCGGGUUUGGGAAAAAAAGGGUGGGAAAGUAUUAUGUUACGCCGUUCGGAUCUGCACUU,1.15
UCCUGUGCUACACAUCGUAUGUACCGAAUCGGUUUUUUGGGGUUUUUUGGGUUUUUUGGAAAGUAUUAUGUUACGCCGUUCGGAUCUGCA,-0.566
UGGCCCAGGUGGCAUGCGGGGAGGAAGAGGUGGCCUCAUGGAUCGUGGUGGUCCCGGUGGAAUGUUCAGAGGUGGCCGUGGUGGAGACAG,1.91
GCAGGAAGUAAAAACAAAUGGAAAUGCUUCGGAUAGUGGCAGGGGUGGGGGUUGCUAAGGAAAGGGUGGGAUGGGAGUGGGUAAAGCGUU,1.42
UUGUGGUAUUUUAUUUACUUAUUUUUUUAAAUCUUCCAUUACAGCCAUGCCUUUCUUGGACAUCCAGAAAAGGUUCGGCCUUAACAUAGA,-1.33
UGGGAGGUGGAUUUUGUUUAUUAUUUUAGCUCAUUUCCAGGGGUGGGAAUUUUUUUUUAAUAUGUGUCAUGAAUAAAGUUGUUUUUGAAA,2.89
GUCCUGUGCUACACAUCGUAUGUACCGAAUCGGCCCCCGGGGCCCCCGGGCCCCCGGGAAAGUAUUAUGUUACGCCGUUCGGAUCUGCAC,-1.34
AAGUCCUGUGCUACACAUCGUAUGUACCGAAUCGGGGCCCGGGGCCCGGGGCCCGGAAAGUAUUAUGUUACGCCGUUCGGAUCUGCACUU,-2.61
ACCAUGCAGGUGGGCAUCUUUGGGAAGUGGGGCAAGGGGGGGAUAGGGAGGGGGGUAACACUUUGGGAACAGGUGGUCCCAGGUCGCUUC,1.61
CUGUGCUACACAUCGUAUGUACCGAAUCGGGGAAAAAAAGGGAAAAAAAGGGAAAAAAAGGGAAAGUAUUAUGUUACGCCGUUCGGAUCU,-1.33
UGGGAGGUGGAUUUUGUUUAUUUUUUUAGCUCGUUUCCAGGGGUGGGAAUUUUUUUUUAAUAUGUGUCAUGAAUAAAGUUGUUUUUGAAA,3.64
CACAGGCAACACGCACCCACACAGACACAGAGGGAAGGGGUUGGGAUGGGGACAGGGUGCACAGCAGGGCGGGGUAGGACCCCAGCCCCU,-0.42

# Study 3
# Target: ATF1, bZIP domain (human)
# Technique: DHFR protein complementation
# Sample: yeast
# Setting: single substitutions, most at no-binding floor
# Relative to: wild-type JUN-FOS pair
# Direction: higher = stronger binding
# Starting sequence: JUN, bZIP domain (human); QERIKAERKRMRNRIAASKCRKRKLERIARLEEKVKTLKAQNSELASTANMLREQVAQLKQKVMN; partner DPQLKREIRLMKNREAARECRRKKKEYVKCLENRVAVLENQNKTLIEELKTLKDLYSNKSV
Substitution,binding fitness [natural log]
R53A,-1.53
K36F,-1.56
T37K,-1.47
M51H,-1.54
A49H,-1.5
I28Q,-1.5
M51K,-1.53
R30M,-1.52
S47G,-1.48
K39H,-1.49
L31E,-1.54
S47M,-1.48
Q55F,-1.45
R30S,-1.41
L52F,-1.5
Q41F,-1.46

# Study 4
# Target: Histone acetyltransferase KAT6A, winged helix 2, GST fusion (KAT6A, Homo sapiens, UniProt Q92794, residues 85-181)
# Technique: protein binding microarray
# Form: double-stranded DNA, one strand shown
# Sample: in vitro
# Concentration: not given
# Setting: 8-mer, flanks averaged, mean of 2 arrays, mostly near background
# Relative to: not given
# Direction: higher = stronger binding
# Construct (chain): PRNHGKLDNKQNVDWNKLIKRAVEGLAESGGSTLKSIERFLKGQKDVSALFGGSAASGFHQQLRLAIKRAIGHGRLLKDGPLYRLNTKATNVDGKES
Oligonucleotide,E-score
CACAACAG,-0.152
ATCTGGCC,0.0299
TGGCGCCA,0.0909
GTTGGCGA,0.223
CCGCCGTC,0.114
ACTATAAC,-0.196
AGCATTAC,-0.136
AACGTGAC,-0.233
CAACTTAA,0.0658
CTGCTCCA,0.191
CGGACCGC,0.0931
GAAATTCC,-0.0119
CCTGTCTC,0.0204
GGCGAAAC,0.206
ATAGTGCC,-0.0566
GAGAGACC,-0.086
AGAACAAC,-0.0639
ATGAGACA,0.0139
AAGATCGA,0.0733

# Study 5
# Target: PABPC1L2, full length, GST fusion (mouse, UniProt A0ABA7IW68)
# Technique: RNAcompete
# Form: RNA
# Sample: in vitro
# Concentration: 20 nM
# Setting: 7-mer, probes averaged, single round
# Relative to: mean of 7-mers
# Direction: higher = stronger binding
# Target sequence (chain): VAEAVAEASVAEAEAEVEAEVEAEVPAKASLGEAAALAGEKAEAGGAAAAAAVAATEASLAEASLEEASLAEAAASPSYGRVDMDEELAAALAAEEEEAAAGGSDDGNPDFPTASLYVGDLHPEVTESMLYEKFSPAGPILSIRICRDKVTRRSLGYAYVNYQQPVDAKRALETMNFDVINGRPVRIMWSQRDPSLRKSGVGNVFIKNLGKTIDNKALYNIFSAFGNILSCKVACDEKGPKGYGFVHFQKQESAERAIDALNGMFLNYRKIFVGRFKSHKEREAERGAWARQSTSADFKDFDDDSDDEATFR
Oligonucleotide,7-mer Z-score
GCUAAGU,-0.18
UGUACGG,-0.0899
UUAGUUU,-0.436
GGACAGG,0.285
CACAUGC,-0.22
ACUGGAG,0.0714
UAAUAUC,-0.211
AACGUAC,0.0261
AUAUAAA,1.83
CGUAAGU,-0.42
UCGCGCC,-0.3
UUCUGGC,-0.358
GUCUGUG,-0.271
UCUGUGU,-0.383
AAUCCGC,-0.199
GUGGAUC,0.206
AAAUCUU,0.57
CGACGGA,-0.0699
CACGUUA,-0.141
UCACUAU,-0.211
CAGUAGA,0.0207
GUGGAGU,-0.0192
AUAGCUU,-0.215
AAAACGA,4.42
UGACGGG,0.1

# Study 6
# Target: RNA binding protein fox-1 homolog 2, RRM domain, GST-SBP tag (RBFOX2, Homo sapiens, UniProt O43251-10, residues 100-194)
# Technique: RNA Bind-n-Seq
# Form: RNA
# Sample: in vitro
# Concentration: 365 nM
# Setting: natural RNA segment, single round, ends assumed
# Relative to: no-protein control
# Direction: higher = stronger binding
# Constant ends, left off below: GGGAGUUCUACAGUCCGACGAUC … UGGAAUUCUCGGGUGCCAA
# Construct (chain): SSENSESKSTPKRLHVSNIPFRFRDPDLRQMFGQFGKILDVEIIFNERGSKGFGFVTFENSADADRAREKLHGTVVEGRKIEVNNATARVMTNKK
Oligonucleotide,RBNS enrichment (R)
GUUGCCUGUUGUUCGGUUGUGUGACUAAUUGUGGAUUUUAAGCUGCUAUUAUUGUAUUUCAGUGGCAAUGGACACAUUAGCCUUUUACAAGAGGACUAGAGUUCAUCAAG,1.68
UUUUCUUACUGUGCUUAGGACUGCACGCAAGUGAGCAGACACCACCGACUUCCUUUCUGCGUCACCAGUGUCGUCAGCAGAGAGAGGACAGCACAGGCUCAAGGUUGGUA,0.474
GUUCCUUUUUUGUAUAUUACAACAUUUAUGUGAGGUAAUUAUUGCUCAACAGACAAUUAGAAAAAAGUCCACACUUGAAGCCUAAAUUUGUGCUUUUUAAGAAUAUUUUU,0.626
ACAUCUGUUGUCAGAGCCACUGAGUGCUGUGCUGCUCGACGUGAGGGUGAAAUGAUUGACUUGUGACCUGCCAGGUUGCCCGAUGCCCUGUUGGGUCACCGGCUGGACCU,0.317
CAGAAAUACAAGAAAAAUAGACUAUGUCAGGUCCUCAAGUUAUGAGUUAGGACCAACGACUAUUAACUUGCAUUCACAUUAUCCUCACAGAACCAAGAGUGGCAAUGCUU,0.804
GAAUCAGAUAGUGUGUUGUUUAGGGGUUAAUUGUGUCUAUAUCUUUCAAAAACUUUUAUAUUAUGUAUUAUAAGAAGUUACAGUAGUACCAUUUUGAUUAGUCUGAAUGU,0.779
CCCUUUAAAAACUAACCCACUGAAUAUUCCGUGUGAUCUAGAACAGUGUGGCAGCUUUCACAGCACAGGACCGUUCAUCGGGGGCCUAAACGUUUCCCUCAGCUCUGUCA,0.295
GGGAAUCAGUGUACUGAUUAUGUUUUCAUCACCAGGCUGUGAGCAAUAUCUUGAGUUUGUAGCUUAGAAUUGGGAAGGCACUGAACAUCUGGAAGACAAGGUCAUUUCAU,0.416
CAUUCAGUCUCCUACCUUGCAUUCAGGAUGCACAGUUCUCUAAGUCCUGGCCAGCCCCAGCUCAUCACAUUGGGUCCACAGGCAUCCCAGCAUGGGUCCCUGCGCCUCCC,0.506
CAUCUUUUAACUCUAACACAGGGAUACUAACCUUUUUCCCUGGCUAAGACAGACUGAGGGCAUUGCAUUACAAUGGCCAGAAACUACACCCAUGAGUGCAACGACCAAGG,0.323
GACAAUCCGAGCAGUGGAGUCAUUCAGCGGGAGCACUGCGCGCUAUCCCCUCACAUUCUCUAUGUACUAUGUAUGUAUGUAUUAUUAUUAUUGCUGCCAAGAGGGUCUGA,0.517
UCUGAAAGAGUCACAUUUUGUCAAAAAUCUGAAAAGUAUGCAAUUUGUACAACUCUUACUUUCUAUGUGAUAAGAAUGCAAUAUGUGCCUCUUUCCCCUACUAGCCCCAU,0.439

# For quick reference, copied from above (study 2):
Oligonucleotide,log2 enrichment
AAGUCCUGUGCUACACAUCGUAUGUACCGAAUCGGGUUUGGGAAAAAAAGGGUGGGAAAGUAUUAUGUUACGCCGUUCGGAUCUGCACUU,1.15
UCCUGUGCUACACAUCGUAUGUACCGAAUCGGUUUUUUGGGGUUUUUUGGGUUUUUUGGAAAGUAUUAUGUUACGCCGUUCGGAUCUGCA,-0.566
UGGCCCAGGUGGCAUGCGGGGAGGAAGAGGUGGCCUCAUGGAUCGUGGUGGUCCCGGUGGAAUGUUCAGAGGUGGCCGUGGUGGAGACAG,1.91
GCAGGAAGUAAAAACAAAUGGAAAUGCUUCGGAUAGUGGCAGGGGUGGGGGUUGCUAAGGAAAGGGUGGGAUGGGAGUGGGUAAAGCGUU,1.42
UUGUGGUAUUUUAUUUACUUAUUUUUUUAAAUCUUCCAUUACAGCCAUGCCUUUCUUGGACAUCCAGAAAAGGUUCGGCCUUAACAUAGA,-1.33
UGGGAGGUGGAUUUUGUUUAUUAUUUUAGCUCAUUUCCAGGGGUGGGAAUUUUUUUUUAAUAUGUGUCAUGAAUAAAGUUGUUUUUGAAA,2.89
